Results gathered from unrelated publications.
Compare with care: the assays were run in different laboratories. Numbers after ± are the reported error.
SLCO1B1: Solute carrier organic anion transporter family member 1B1 (SLCO1B1, Homo sapiens, UniProt Q9Y6L6)
Sequence of UniProt Q9Y6L6 (whole entry, looked up): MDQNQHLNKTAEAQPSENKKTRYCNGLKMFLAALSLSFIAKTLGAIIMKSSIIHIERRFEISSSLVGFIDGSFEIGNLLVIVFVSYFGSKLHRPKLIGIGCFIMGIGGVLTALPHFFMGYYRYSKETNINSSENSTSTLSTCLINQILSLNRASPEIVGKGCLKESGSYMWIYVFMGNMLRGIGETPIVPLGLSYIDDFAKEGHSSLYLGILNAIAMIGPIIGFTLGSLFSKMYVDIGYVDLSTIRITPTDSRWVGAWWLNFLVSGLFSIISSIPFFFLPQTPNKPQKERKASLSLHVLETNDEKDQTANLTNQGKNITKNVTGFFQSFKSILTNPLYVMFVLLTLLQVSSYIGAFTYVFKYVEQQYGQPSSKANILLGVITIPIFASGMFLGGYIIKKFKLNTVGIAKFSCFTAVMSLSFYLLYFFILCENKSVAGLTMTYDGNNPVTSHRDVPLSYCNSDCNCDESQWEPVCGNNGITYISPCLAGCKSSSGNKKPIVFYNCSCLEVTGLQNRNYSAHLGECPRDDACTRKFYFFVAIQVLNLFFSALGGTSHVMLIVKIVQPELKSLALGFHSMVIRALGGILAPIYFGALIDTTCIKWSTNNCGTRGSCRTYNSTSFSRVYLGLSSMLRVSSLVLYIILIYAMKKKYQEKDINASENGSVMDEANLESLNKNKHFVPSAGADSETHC
CYP3A4 S18F: Cytochrome P450 3A4 (CYP3A4, Homo sapiens, UniProt P08684, S18F)
Sequence of UniProt P08684 (whole entry, unmodified, looked up): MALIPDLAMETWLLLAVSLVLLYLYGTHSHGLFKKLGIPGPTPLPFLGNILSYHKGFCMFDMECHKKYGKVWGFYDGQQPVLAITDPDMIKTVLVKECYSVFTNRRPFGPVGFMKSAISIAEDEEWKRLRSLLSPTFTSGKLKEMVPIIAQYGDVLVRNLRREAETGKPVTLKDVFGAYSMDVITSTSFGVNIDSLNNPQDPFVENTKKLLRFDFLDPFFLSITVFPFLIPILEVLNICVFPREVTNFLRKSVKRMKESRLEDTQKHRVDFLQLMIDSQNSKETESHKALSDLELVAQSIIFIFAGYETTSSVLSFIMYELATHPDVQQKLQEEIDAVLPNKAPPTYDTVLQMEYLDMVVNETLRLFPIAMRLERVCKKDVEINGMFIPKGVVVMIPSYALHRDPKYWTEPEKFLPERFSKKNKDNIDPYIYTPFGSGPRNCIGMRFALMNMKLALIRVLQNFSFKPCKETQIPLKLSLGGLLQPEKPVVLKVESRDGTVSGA
CYP3A4: Cytochrome P450 3A4 (CYP3A4, Homo sapiens, UniProt P08684)
Sequence of UniProt P13866 (whole entry, looked up): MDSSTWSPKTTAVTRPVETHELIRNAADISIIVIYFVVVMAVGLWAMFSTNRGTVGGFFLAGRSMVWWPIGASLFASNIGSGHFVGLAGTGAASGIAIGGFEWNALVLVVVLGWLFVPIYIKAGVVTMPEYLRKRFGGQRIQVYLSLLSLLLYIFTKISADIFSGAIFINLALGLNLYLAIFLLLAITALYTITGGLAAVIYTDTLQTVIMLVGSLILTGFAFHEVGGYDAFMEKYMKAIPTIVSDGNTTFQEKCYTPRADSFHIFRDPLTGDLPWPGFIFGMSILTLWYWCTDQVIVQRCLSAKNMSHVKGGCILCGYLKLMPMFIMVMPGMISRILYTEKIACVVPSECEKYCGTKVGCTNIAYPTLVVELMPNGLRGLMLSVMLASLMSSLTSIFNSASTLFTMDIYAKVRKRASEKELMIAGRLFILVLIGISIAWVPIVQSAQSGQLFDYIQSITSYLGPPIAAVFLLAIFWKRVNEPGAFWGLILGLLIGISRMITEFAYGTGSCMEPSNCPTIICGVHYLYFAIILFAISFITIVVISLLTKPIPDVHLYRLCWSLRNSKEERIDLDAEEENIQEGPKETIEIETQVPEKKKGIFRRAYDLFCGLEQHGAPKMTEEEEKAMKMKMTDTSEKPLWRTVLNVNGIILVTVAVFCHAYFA
Sequence of UniProt P02769 (whole entry, looked up): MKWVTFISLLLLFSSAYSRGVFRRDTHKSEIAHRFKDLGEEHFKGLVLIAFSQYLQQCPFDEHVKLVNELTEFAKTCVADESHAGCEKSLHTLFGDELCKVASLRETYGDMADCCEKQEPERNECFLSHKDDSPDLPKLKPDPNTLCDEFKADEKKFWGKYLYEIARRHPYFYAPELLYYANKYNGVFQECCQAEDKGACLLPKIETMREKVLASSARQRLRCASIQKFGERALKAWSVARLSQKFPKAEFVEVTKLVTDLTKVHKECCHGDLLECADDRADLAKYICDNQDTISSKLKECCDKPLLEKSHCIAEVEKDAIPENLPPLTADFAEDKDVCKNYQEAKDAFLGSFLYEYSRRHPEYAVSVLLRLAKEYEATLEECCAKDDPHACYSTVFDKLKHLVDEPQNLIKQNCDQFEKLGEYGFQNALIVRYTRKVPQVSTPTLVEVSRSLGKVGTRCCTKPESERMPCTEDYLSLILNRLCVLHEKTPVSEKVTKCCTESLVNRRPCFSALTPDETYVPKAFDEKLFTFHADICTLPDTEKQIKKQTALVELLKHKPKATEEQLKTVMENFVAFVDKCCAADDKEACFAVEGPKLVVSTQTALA
Sequence of UniProt P20815 (whole entry, looked up): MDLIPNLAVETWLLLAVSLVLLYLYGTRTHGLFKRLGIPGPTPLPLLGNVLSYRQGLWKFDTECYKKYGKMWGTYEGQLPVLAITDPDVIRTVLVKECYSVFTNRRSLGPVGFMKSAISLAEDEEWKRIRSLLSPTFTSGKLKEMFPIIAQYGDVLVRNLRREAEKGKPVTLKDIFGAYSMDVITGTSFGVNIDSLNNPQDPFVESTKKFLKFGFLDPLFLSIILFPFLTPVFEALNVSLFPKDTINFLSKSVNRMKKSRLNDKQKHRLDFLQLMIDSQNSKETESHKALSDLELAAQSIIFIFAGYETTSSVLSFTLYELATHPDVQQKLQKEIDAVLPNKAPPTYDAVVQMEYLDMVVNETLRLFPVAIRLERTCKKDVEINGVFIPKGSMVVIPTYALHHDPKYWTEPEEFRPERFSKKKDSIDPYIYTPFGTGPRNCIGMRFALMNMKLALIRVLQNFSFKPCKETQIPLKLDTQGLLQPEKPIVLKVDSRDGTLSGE
Sequence of UniProt O94956 (whole entry, looked up): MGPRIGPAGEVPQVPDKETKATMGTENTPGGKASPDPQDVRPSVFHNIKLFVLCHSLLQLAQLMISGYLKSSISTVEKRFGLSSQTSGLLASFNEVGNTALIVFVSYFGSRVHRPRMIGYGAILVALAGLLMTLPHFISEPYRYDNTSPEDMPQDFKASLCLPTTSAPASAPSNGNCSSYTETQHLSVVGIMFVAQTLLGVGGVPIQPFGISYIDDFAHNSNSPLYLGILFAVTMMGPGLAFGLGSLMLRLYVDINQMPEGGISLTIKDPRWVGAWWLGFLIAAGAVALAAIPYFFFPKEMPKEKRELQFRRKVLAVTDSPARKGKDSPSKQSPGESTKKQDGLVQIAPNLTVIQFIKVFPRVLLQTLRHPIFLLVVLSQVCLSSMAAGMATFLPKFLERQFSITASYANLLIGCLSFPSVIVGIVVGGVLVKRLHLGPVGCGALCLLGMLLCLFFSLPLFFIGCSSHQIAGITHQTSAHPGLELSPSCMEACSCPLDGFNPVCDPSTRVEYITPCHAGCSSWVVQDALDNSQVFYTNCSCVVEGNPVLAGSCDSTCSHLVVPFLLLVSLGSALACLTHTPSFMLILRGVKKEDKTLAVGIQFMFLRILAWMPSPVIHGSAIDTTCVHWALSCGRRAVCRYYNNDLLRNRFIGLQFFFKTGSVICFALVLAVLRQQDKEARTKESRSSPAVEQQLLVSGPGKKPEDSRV
Sequence of UniProt P11509 (whole entry, looked up): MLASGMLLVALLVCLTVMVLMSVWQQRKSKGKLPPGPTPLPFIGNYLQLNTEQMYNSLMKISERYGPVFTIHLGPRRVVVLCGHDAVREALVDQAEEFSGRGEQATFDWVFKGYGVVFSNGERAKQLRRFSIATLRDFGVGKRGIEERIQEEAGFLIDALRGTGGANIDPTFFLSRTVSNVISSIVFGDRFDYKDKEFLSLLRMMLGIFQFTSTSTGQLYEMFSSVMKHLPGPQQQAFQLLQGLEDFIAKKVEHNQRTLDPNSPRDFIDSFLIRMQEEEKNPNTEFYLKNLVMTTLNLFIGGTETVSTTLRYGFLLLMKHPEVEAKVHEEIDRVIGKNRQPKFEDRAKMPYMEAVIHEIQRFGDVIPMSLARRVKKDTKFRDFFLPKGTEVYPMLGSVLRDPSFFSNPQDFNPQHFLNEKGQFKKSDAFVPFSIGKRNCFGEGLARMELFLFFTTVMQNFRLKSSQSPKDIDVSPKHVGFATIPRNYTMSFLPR

SMILES	target	assay	test system	setting	scale	quantity	result
OC[C@H]1O[C@@H](Oc2cc3c(O[C@@H]4O[C@H](CO)[C@@H](O)[C@H](O)[C@H]4O)cc(O)cc3[o+]c2-c2ccc(O)c(O)c2)[C@H](O)[C@@H](O)[C@@H]1O	SLC5A1 (Homo sapiens, UniProt P13866)	–	Caco-2 BBe1, SLC5A1 siRNA knockdown	50 µM, 4 h	reference: scrambled siRNA over knockdown	transport rate reduction	6.45 fold
Cc1coc2c1CC[C@@H](C)C2	Cytochrome P450 2A6 (CYP2A6, Homo sapiens, UniProt P11509)	inactivator	–	5 µM, 10 min, pH 7.4, 30 °C, together with: NADPH, glutathione 10 mM	–	remaining activity	56 ± 3%
CN(C)Cc1cc(OCCC[18F])ccc1Sc1ccccc1N	SERT	–	male Sprague Dawley rat, PCA-treated, hypothalamus	intravenous, 60 min	–	tissue uptake	0.32 ± 0.05 %ID/g
C#CCOc1ccc2ccc(=O)oc2c1	human CYP3A4	enzyme inactivation, inactivator	reconstituted system	together with: testosterone 6β-hydroxylation substrate	–	KI	25 µM
C=CC(=O)N1CCC([C@@H]2CCNc3c(C(N)=O)c(-c4ccc(Oc5ccccc5)cc4)nn32)CC1	SLCO1B1	transport, refers to: estradiol-17β-glucuronide uptake	HEK293 transfected	0.2 µM	reference: vehicle	remaining activity	97.9 ± 9.5%
COCCc1ccc(OCC(O)CNC(C)C)cc1 (stereo not drawn)	Albumin (ALB, Bos taurus, UniProt P02769)	ultrafiltration	Bos taurus, albumin solution	2 µg/mL, 60 min, together with: atractylenolide III 0.1 µg/mL	–	unbound fraction	0.698
CO[C@H]1/C=C/O[C@@]2(C)Oc3c(C)c(O)c4c(O)c(c(/C=N/N5CCN(C)CC5)c(O)c4c3C2=O)NC(=O)/C(C)=C\C=C\[C@H](C)[C@H](O)[C@@H](C)[C@@H](O)[C@@H](C)[C@H](OC(C)=O)[C@@H]1C	SLCO1B1	inhibitor	HEK293 expressing SLCO1B1	10 and 25 µM, 30 min preincubation, together with: [3H]estrone-3-sulfate	–	transport after preincubation	decreased
NC(=O)N1c2ccccc2C=Cc2ccccc21	CYP3A4 S18F	substrate	nanodiscs with CPR	three substrates bound	–	NADPH oxidation rate	56 nmol/nmol P450/min
C#C[C@]1(O)CC[C@H]2[C@@H]3CCC4=CC(=NO)CC[C@@H]4[C@H]3CC[C@@]21CC (mixture of isomers)	CYP3A4	–	human, plasma	oral, dose not given, oral contraceptive, day 21, together with: EDP-305 2.5 mg	–	AUC(0-t)	25.6 ng·h/mL
O=C(O)c1cc2cc(O)ccc2n1Cc1ccc(Cl)c(C(F)(F)F)c1	SLCO1B1	estradiol 17β-glucuronide uptake, inhibitor	HEK293 expressing OATP1B1	30 µM, together with: [3H]-estradiol 17β-glucuronide	reference: DMSO control	remaining activity	0%
COc1ccc2[nH]cc(CCNC(C)=O)c2c1	Abcg2 (mouse)	–	FVB/N wild-type male mice	oral, 10 mg/kg, 1 h	–	plasma concentration	16.5 ± 9.86 ng/mL
CC1=N[C@]2(C(=O)CO)[C@@H](C[C@H]3[C@@H]4C[C@@H](O)C5=CC(=O)C=C[C@]5(C)[C@H]4[C@@H](O)C[C@@]32C)O1	CYP3A4	enzyme activity, inhibitor	pooled human liver microsomes	30 min preincubation without NADPH, together with: testosterone substrate	–	IC50	> 50 µM
CC(=O)[C@H]1CC[C@H]2[C@@H]3CCC4=CC(=O)CC[C@]4(C)[C@H]3CC[C@]12C	CYP3A4 S18F	substrate	nanodiscs with CPR	two substrates bound	–	NADPH oxidation rate	388 nmol/nmol P450/min
COc1cc2c(Oc3ccc4[nH]c(C)cc4c3F)ccnc2cc1OCC1(N)CC1	Cytochrome P450 3A5 (CYP3A5, Homo sapiens, UniProt P20815)	substrate	–	1 µM, 60 min, pH 7.4, 37 °C	–	intrinsic clearance	0.31 µL/min/pmol
CC(=O)c1cc(C(=O)N[C@@H](C)Cn2ccc(-c3ccc(C#N)c(Cl)c3)n2)[nH]n1	SLCO2B1 (Homo sapiens, UniProt O94956)	transporter uptake, inhibitor	–	–	–	IC50	> 10 µM

Excerpt of the above:
SMILES	target	assay	test system	setting	scale	quantity	result
CC1=N[C@]2(C(=O)CO)[C@@H](C[C@H]3[C@@H]4C[C@@H](O)C5=CC(=O)C=C[C@]5(C)[C@H]4[C@@H](O)C[C@@]32C)O1	CYP3A4	enzyme activity, inhibitor	pooled human liver microsomes	30 min preincubation without NADPH, together with: testosterone substrate	–	IC50	> 50 µM
